Measurements pooled from the literature.
± gives the spread as reported.

CCN(CC)CC#CCNc1ccnc2cc(Cl)ccc12  half-life (male CD1 mice, plasma; intravenous, 10 mg/kg): 2.9 h
COc1cc2c(cc1OC)CC(=O)N(C[C@H]1CCCN(CCOc3ccc(F)cc3)C1)CC2  half-life (female C57BL/6 mice; intraperitoneal, 20 mg/kg): 0.73 h
Oc1cc(F)ccc1Oc1ccccc1  half-life (CD-1 mice, plasma; subcutaneous, 100 mg/kg): 1.3 ± 0.7 h
CCNCC#CCNc1ccnc2cc(Cl)ccc12  half-life (male CD1 mice, plasma; oral, 20 mg/kg of DAQ, compound as metabolite): 4.7 h
COc1cccc(OCCN2CCC[C@H](CN3CCc4cc(OC)c(OC)cc4CC3=O)C2)c1  half-life (male C57BL/6 mice; intraperitoneal, 20 mg/kg): 0.82 h
CC(C)(C)ONc1nc(Nc2ccnc(C(F)(F)F)c2)nc(-c2cccc(C(F)(F)F)n2)n1  half-life (female Balb/cA nude mice xenograft, tumour; oral, 54.14 mg/kg): 19.3 h
O=[N][Fe]1([N]=O)[S](CCO)[Fe]([N]=O)([N]=O)[S]1CCO  half-life (C57BL/6JNarl mice, stomach; oral, 13.25 mg/kg): 2.7 ± 0.6 h
O=C(NCCN1C(=O)CCC1=O)[O][Pt]12([O]C(=O)NCCN3C(=O)CCC3=O)([NH][C@@H]3CCCC[C@H]3[NH]1)[O]C(=O)C(=O)[O]2  half-life (BALB/c mice, serum; intravenous, equimolar to 9 mg/kg oxaliplatin): 25.7 h
CN1/C(=C/C=C/c2cc(-c3ccccc3)cc(-c3ccccc3)[o+]2)C(C)(C)c2ccccc21  half-life (male CD1 mice, plasma; intravenous, 1 mg/kg): 0.378 h
COC(=O)C1=CNC=C(C(=O)OC)C1c1ccc(F)c(C(F)(F)F)c1  half-life (male mice, plasma and brain; intraperitoneal, 25 mg/kg): 2.24 to 2.48 h
CC=C1C(OC2OC(CO)C(O)C(O)C2O)OC=C(C(=O)OC)C1CC(=O)OCC1OC(OCCc2ccc(O)cc2)C(O)C(O)C1O (stereo not drawn)  half-life (pseudo-germfree mice, plasma; oral, 109.2 mg/kg): 1.38 h
CC(=O)N1CCC(NC(=O)Nc2ccc(OC(F)(F)F)cc2)CC1  half-life (C57BL/6J mice, male, sEH knockout, whole blood; subcutaneous, 1 mg/kg, added: TPPU 0.3 mg/kg): 8.35 h

Some of these lines once more:
CN1/C(=C/C=C/c2cc(-c3ccccc3)cc(-c3ccccc3)[o+]2)C(C)(C)c2ccccc21  half-life (male CD1 mice, plasma; intravenous, 1 mg/kg): 0.378 h
